Results gathered from unrelated publications.
Each line is one published result; not all experiments were run side by side. ± gives the spread as reported.

system | conditions | tissue uptake | Compound
female C57 mouse, B16/F1 melanoma, spleen | intravenous, 0.037 MBq, 24 h | 2.87 ± 1 %ID/g | CCCC[C@H](NC(=O)CNC(=O)CNC(=O)CN1CCN(CC(=O)O)CCN(CC(=O)O)CCN(CC(=O)O)CC1)C(=O)N[C@H]1CC(=O)NCCCC[C@@H](C(N)=O)NC(=O)[C@H](Cc2c[nH]c3ccccc23)NC(=O)[C@H](CCCNC(=N)N)NC(=O)[C@@H](Cc2ccccc2)NC(=O)[C@H](Cc2c[nH]cn2)NC1=O [copper-64 labelled]
C57 mouse, liver | intravenous, 0.056 MBq, 2 h | 1.03 ± 0.13 %ID/g | CCCC[C@H](NC(=O)CNC(=O)CNC(=O)CN1CCN(CC(=O)O)CCN(CC(=O)O)CCN(CC(=O)O)CC1)C(=O)N[C@H]1CC(=O)NCCCC[C@@H](C(N)=O)NC(=O)[C@H](Cc2c[nH]c3ccccc23)NC(=O)[C@H](CCCNC(=N)N)NC(=O)[C@@H](Cc2ccccc2)NC(=O)[C@H](Cc2c[nH]cn2)NC1=O [lead-203 labelled]
C57 mouse, female, B16/F1 melanoma, blood | intravenous, 0.037 MBq, 4 h | 0.48 ± 0.32 %ID/g | CC(C)[C@H](NC(=O)[C@@H]1CCCN1C(=O)[C@H](CCCNC(=N)N)NC(=O)[C@H](CS)NC(=O)[C@H](Cc1c[nH]c2ccccc12)NC(=O)[C@H](CCCNC(=N)N)NC(=O)[C@@H](Cc1ccccc1)NC(=O)[C@H](Cc1c[nH]cn1)NC(=O)[C@H](CCC(=O)O)NC(=O)[C@H](CS)NC(=O)[C@H](CS)NC(=O)[C@@H]1CC(=O)N[C@@H](CCCNC(=N)N)C(=O)NCC(=O)N[C@@H](CC(=O)O)C(=O)N[C@H](Cc2ccc(O)cc2)C(=O)N1)C(N)=O [technetium-99m labelled]
mouse, Hec50 endometrial tumour, spleen | 1 h post injection | 1.04 ± 0.25 %ID/g | O=C([O-])CN1CCN(CC(=O)[O-])CCN(CC(=O)NCCc2ccc3c(c2)C2C=CCC2C(c2cc4c(cc2Br)OCO4)N3)CCN(CC(=O)[O-])CC1.[111In+3] (centres unmarked)
C57 mouse, female, B16/F1 melanoma, heart | intravenous, 0.037 MBq, 2 h | 0.71 ± 0.1 %ID/g | CC(C)[C@H](NC(=O)[C@@H]1CCCN1C(=O)[C@H](CCCNC(=N)N)NC(=O)[C@H](CS)NC(=O)[C@H](Cc1c[nH]c2ccccc12)NC(=O)[C@H](CCCNC(=N)N)NC(=O)[C@@H](Cc1ccccc1)NC(=O)[C@H](Cc1c[nH]cn1)NC(=O)[C@H](CCC(=O)O)NC(=O)[C@H](CS)NC(=O)[C@H](CS)NC(=O)CNC(=O)[C@@H]1CC(=O)N[C@@H](CCCNC(=N)N)C(=O)NCC(=O)N[C@@H](CC(=O)O)C(=O)N[C@H](Cc2ccc(O)cc2)C(=O)N1)C(N)=O [technetium-99m labelled]
female CB-17 SCID mouse, Daudi xenograft, kidney | intravenous, 6 h, CXCR4 blocking, added: AMD3100 2 mg/kg coinjected | 2.76 ± 0.18 %ID/g | CN1C(=O)[C@@H](Cc2ccc(O)c(I)c2)NC(=O)CNC(=O)[C@H](Cc2ccc3ccccc3c2)NC(=O)[C@H](CCCNC(=N)N)NC(=O)[C@H]1CCCNC(=O)c1ccc(CNC(=O)CN2CCN(CC(=O)O)CCN(CC(=O)O)CCN(CC(=O)O)CC2)cc1 [lutetium-177 labelled]
C57 mouse female B16/F1 melanoma, intestines | intravenous, 0.037 MBq, 0.5 h | 1.27 ± 0.11 %ID | CCCC[C@H](NC(=O)CNC(=O)CNC(=O)CN1CCN(CC(=O)O)CCN(CC(=O)O)CC1)C(=O)N[C@H]1CC(=O)NCCCC[C@@H](C(N)=O)NC(=O)[C@H](Cc2c[nH]c3ccccc23)NC(=O)[C@H](CCCNC(=N)N)NC(=O)[C@@H](Cc2ccccc2)NC(=O)[C@H](Cc2c[nH]cn2)NC1=O [copper-64 labelled]
ICR mouse, bone | intravenous, 2 min | 3.14 ± 0.57 %ID/g | CN(C)c1ccc(-c2nc3ccc(OCCCCCN4CCN5CCN(CC4)CC(=O)[O][Al]([18F])[O]C(=O)C5)cc3s2)cc1
